Published values gathered from unrelated publications.
Numbers after ± are the reported error.
Albumin: Albumin (Mus musculus, UniProt P07724)
Chain of UniProt P07724 (whole entry, looked up): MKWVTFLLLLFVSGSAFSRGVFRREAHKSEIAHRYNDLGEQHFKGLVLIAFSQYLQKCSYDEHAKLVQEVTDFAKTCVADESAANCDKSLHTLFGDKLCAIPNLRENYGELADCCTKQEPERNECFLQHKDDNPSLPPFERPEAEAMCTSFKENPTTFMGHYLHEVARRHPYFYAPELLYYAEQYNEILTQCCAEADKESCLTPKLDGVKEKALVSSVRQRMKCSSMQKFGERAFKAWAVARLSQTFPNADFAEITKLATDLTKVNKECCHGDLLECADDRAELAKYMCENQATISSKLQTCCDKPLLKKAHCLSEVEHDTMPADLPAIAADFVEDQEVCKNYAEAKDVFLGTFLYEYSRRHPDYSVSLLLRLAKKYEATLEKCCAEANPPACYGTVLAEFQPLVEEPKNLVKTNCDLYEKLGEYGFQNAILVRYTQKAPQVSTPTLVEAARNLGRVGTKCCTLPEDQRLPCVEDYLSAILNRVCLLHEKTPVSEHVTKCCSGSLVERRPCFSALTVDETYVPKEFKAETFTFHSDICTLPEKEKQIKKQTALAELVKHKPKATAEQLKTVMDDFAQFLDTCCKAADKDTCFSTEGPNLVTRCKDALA
CYP2C9: Cytochrome P450 2C9 (CYP2C9, Homo sapiens, UniProt P11712)
Chain of UniProt P11712 (whole entry, looked up): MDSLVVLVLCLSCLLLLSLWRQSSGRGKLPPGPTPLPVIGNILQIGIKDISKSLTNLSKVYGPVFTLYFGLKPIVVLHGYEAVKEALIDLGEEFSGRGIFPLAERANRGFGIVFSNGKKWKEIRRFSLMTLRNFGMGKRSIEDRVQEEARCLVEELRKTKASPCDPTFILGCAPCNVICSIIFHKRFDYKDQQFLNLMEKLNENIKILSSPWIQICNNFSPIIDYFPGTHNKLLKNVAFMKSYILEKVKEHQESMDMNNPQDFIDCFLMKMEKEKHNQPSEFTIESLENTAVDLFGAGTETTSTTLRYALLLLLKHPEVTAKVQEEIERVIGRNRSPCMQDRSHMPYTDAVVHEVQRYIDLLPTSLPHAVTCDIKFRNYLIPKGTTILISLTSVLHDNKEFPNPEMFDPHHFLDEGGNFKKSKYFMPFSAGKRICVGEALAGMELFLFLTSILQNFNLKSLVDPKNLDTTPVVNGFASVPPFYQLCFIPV
Chain of UniProt P22310 (whole entry, looked up): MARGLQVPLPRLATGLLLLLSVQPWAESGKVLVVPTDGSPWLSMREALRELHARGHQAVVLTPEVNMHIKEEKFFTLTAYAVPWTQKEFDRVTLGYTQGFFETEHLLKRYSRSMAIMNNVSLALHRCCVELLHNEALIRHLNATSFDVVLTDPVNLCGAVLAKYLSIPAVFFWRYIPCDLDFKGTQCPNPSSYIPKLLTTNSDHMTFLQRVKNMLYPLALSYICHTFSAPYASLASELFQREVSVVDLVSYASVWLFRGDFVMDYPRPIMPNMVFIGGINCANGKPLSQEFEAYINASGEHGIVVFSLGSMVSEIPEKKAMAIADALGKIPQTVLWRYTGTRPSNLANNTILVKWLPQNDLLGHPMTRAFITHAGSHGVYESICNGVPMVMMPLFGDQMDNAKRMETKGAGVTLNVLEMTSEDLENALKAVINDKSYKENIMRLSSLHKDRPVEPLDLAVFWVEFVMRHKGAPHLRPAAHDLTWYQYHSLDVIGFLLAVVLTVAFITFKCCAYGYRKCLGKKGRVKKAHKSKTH
Chain of UniProt P33261 (whole entry, looked up): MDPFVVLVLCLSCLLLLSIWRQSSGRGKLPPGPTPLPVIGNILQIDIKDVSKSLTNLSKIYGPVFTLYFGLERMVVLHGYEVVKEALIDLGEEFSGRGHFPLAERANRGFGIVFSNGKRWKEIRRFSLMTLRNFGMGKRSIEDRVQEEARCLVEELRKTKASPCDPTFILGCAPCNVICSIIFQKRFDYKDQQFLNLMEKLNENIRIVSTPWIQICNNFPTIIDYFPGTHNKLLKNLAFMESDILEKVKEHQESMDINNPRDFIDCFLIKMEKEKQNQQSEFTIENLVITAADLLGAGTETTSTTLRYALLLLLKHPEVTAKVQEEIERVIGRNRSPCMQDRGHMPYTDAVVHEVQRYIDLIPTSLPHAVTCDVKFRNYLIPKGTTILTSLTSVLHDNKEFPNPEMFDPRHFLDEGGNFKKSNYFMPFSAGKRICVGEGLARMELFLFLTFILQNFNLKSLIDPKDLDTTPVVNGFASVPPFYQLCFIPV
Chain of UniProt P10635 (whole entry, looked up): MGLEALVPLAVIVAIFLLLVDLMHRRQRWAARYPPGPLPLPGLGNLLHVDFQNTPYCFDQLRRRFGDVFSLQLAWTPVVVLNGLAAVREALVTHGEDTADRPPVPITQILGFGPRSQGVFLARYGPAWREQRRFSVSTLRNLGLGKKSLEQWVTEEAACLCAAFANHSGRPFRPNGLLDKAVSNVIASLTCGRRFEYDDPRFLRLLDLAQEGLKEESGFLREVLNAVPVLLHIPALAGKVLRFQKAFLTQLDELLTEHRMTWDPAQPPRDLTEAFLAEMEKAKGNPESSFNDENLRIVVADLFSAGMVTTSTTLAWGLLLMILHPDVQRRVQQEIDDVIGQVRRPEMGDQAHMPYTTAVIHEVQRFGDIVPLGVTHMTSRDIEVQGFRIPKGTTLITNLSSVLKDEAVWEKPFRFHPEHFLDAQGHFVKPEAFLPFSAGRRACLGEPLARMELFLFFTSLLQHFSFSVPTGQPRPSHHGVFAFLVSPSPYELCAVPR

For CN(C)c1ccc2c(c1)C(C)(C)c1cc(N(C)C)ccc1C21OC(=O)c2ccc(C(=O)O)cc21, the Kd was 126 ± 23 µM (Albumin; binding, fluorescence titration; PBS).
The remaining binding of Nc1ncc(-c2cc(-c3cnn(CC(F)(F)F)c3)ncc2F)nc1C(=O)NC1CNCC(F)C1 (stereo not drawn) is reported as 97% (MYO3B; KINOMEscan; 1 µM; reference: DMSO control).
O=c1c(-c2ccccc2)c[nH]n1-c1ccccn1 — result for “log stability constant”: roughly 21 (iron(II); aqueous solution; pH above 3, iron:ligand 1:3 complex).
C=CC(=O)Nc1cc(Nc2nccc(-c3cn(C)c4ccccc34)n2)c(OCC(F)(F)F)nc1N(C)CCNC — result for “contribution to metabolite formation”: 0.27% (Cytochrome P450 2C19 (CYP2C19, Homo sapiens, UniProt P33261); substrate; 3 µM, 60 min, 2C19 isoform, liver abundance-normalized).
C=C(NC(=O)c1csc(-c2nc3c(cc2O)-c2nc(cs2)C(=O)NC(C(C)O)C(=O)NC(=C(C)OC)c2nc(cs2)C(=O)NC2c4nc(cs4)C(=O)NC(COC(=O)c4c5c6c(cccc6n4O)COC(=O)C(OC4CC(C)(O)C(N(C)C)C(C)O4)C2OC5)c2nc-3cs2)n1)C(N)=O (stereo not drawn) has a mRNA level of less than 4 fold (CYP2B6; induction, item: CYP2B6 mRNA; primary human hepatocytes; NG, 3 days, 0.1% DMSO; reference: vehicle).
With N#Cc1cccc(N2CN(CC(=O)NCC(F)(F)F)C(=O)C23CCN(C(=O)c2cnc4[nH]ncc4c2)CC3)c1 the IC50 was 4.4 µM (CYP2C9; enzyme activity, inhibitor).
COC1CN([C@H]2CC[C@H]([C@@]3(C)Oc4c(Cl)cc(C(=O)NCc5c(SC)cc(C)[nH]c5=O)c(C)c4O3)CC2)C1: “log2 fold change” 0.00431 (RNA-seq, item: RAB20 mouse homolog; mouse, HT-1376 xenograft, whole blood; dose not given; reference: vehicle).
C[C@@H](Nc1c(-c2c(F)cc(C#N)cc2F)c(Cl)nc2ncnn12)C(C)(C)C gave an IC50 of greater than 15 µM (human CYP3A4, CYP2D6, CYP2C19, CYP2C9, CYP1A2; inhibitor; pooled human liver microsomes; pH 7.4, added: isoform-specific probe substrates).
CNS(=O)(=O)Nc1nccc(Cc2c(C)c3ccc(Oc4ncccc4F)cc3oc2=O)c1F has an IC50 of greater than 1 µM (HT1197; cell viability; 7 days).
CN1CCCNC(=O)c2cccc(c2)C(=O)NCCCN(C)CCCNc2cccc3c2C(=O)c2cccc(c2C3=O)NCCC1: “log2 fold change” -1.06 (SAS; RNA-Seq, item: SLC12A8 mRNA; 1 µM, 6 h; reference: untreated cells).
CNC(=O)C1CCCN(C(=O)C2CC3CCC2N3C(=O)[C@@H]2C[C@@H](O)CN2C(=O)NCc2cccc(Cl)c2F)C1 (mixture of isomers) gave a remaining activity of 131% (Cytochrome P450 2D6 (CYP2D6, Homo sapiens, UniProt P10635); enzyme activity, inhibitor, time-dependent inhibition; 5.56 µM, preincubated with NADPH; reference: negative control).
For CN1CCN(c2ccc3[nH]c(-c4ccc5[nH]c(-c6ccc(OCCCCNC(=O)c7ccc8c(c7)C7(OC8=O)c8ccc(N(C)C)cc8C(C)(C)c8cc(N(C)C)ccc87)cc6)nc5c4)nc3c2)CC1, “fluorescence quantum yield” read 0.07 ± 0.02 (Albumin; PBS; 1 µM, 1 h, added: 25 mg/mL albumin).
CCCCN1C(=O)c2cccc3c(N4CCN(C)CC4)ccc(c23)C1=O: “contribution of other UGTs” less than 2% (UDP-glucuronosyltransferase 1A4 (UGT1A4, Homo sapiens, UniProt P22310); N-glucuronidation, substrate, relative activity factor; human, recombinant UGT, liver microsomes).
CN1CCN(c2ccc3[nH]c(-c4ccc5[nH]c(-c6ccc(OCCCCNC(=O)c7ccc8c(c7)C7(OC8=O)c8ccc(N(C)C)cc8[Si](C)(C)c8cc(N(C)C)ccc87)cc6)nc5c4)nc3c2)CC1: “fluorescence quantum yield” 0.006 ± 0.003 (Albumin; PBS; 1 µM, 1 h, added: 25 mg/mL albumin).
For O=C(CN1CN(c2ccc(Cl)c(Cl)c2)C2(CCN(C(=O)c3ccc4[nH]ncc4c3)CC2)C1=O)NCC(F)(F)F, the IC50 was 0.6 µM (CYP2C9; enzyme activity, inhibitor).
Cc1ncsc1-c1ccc(C(C)NC(=O)C2CC(O)CN2C(=O)C(NC(=O)CCCCCCCCCCN2CCCC(Nc3ncc(Cl)c(Nc4ccccc4S(=O)(=O)C(C)C)n3)C2)C(C)(C)C)cc1 (stereo not drawn): “log2 fold change” -1.48 (22Rv1; RNA-seq, item: SLC5A3 mRNA; concentration not given; reference: DMSO).
C=CC(=O)Nc1cccc(Cn2ncc3cnc(Nc4cnn(CCOC)c4)nc32)c1 — result for “percent of control”: 95% (CAMKK1 human; binding, KINOMEscan; 100 nM; lower = stronger binding).
With CN1CCN(c2ccc3[nH]c(-c4ccc5[nH]c(-c6ccc(OCCCCNC(=O)c7ccc8c(c7)C(=O)OC87c8ccc(N(C)C)cc8[Si](C)(C)c8cc(N(C)C)ccc87)cc6)nc5c4)nc3c2)CC1 the Kd was greater than 1000 µM (Albumin; binding, second site, fluorescence titration; PBS).

A few entries again:
CCCCN1C(=O)c2cccc3c(N4CCN(C)CC4)ccc(c23)C1=O: “contribution of other UGTs” less than 2% (UDP-glucuronosyltransferase 1A4 (UGT1A4, Homo sapiens, UniProt P22310); N-glucuronidation, substrate, relative activity factor; human, recombinant UGT, liver microsomes).
